Measurements from different studies.
Numbered parts are unrelated; each lists some results of a single study.

Study 1
Target: Ras GTPase-activating protein-binding protein 1, RRM domain (G3BP1, Homo sapiens, UniProt Q13283)
UniProt Q13283, sequence (whole entry, looked up): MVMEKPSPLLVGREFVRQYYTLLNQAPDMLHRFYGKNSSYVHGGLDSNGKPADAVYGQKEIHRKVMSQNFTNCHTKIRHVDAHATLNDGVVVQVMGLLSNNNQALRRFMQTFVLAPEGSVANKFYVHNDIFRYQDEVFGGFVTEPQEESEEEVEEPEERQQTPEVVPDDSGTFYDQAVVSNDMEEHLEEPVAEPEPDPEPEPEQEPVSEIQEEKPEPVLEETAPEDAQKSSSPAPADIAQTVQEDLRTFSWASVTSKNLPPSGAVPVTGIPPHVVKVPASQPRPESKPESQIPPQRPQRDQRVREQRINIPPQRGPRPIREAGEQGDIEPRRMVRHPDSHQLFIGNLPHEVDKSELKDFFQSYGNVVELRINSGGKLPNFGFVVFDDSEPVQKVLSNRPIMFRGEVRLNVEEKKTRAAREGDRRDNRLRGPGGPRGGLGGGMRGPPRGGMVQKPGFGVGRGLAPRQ
Method: RNA Bind-n-Seq
Form: RNA
Matrix: in vitro
Concentration: 1 µM
Setting: whole 134-nt RNA, ends assumed
With: 150 mM KCl
Relative to: input library
Reading: higher = stronger binding
All sequences stand within: GGGAGUUCUACAGUCCGACGAUC … UGGAAUUCUCGGGUGUCAAGG
| Strand | log2 enrichment |
| --- | --- |
| CACAGACAACACGCACCAACACAGACACAGAGGGAAGGGGUUGGGAUGGGGACAGGGUGCACAGCAGGGCGGGGUAGGACCCCAGCCCCU | 0.381 |
| CUCAAGUCCUGUGCUACACAUCGUAUGUACCGAAUCGGUUUUUGGAGGAAAGGAAAGUAUUAUGUUACGCCGUUCGGAUCUGCACUUCCA | -0.144 |
| GCAGGAAGUAAAAACAAAUGGAAAUGCUUCGGAUAGUGGCAGGGGUGGGGGGUGCUAAGGAAAGGGUGGGAUGGGAGUGGGUAAAGAGUU | 0.728 |
| CAAGUCCUGUGCUACACAUCGUAUGUACCGAAUCGGAAAAGGGAAAAGGAAAAGGAAAGUAUUAUGUUACGCCGUUCGGAUCUGCACUUC | -0.0699 |
| UCUUUAUUUGAGCCAGUCUUGCAAGGUUAACUUCUCACUGGGCCUAGUGUGGUGCCCAGGUUUUUGCCUUGCUUCACUUCUGUCUCUACA | -0.495 |
| CUGUGCUACACAUCGUAUGUACCGAAUCGGGGUUUUUUUGGGGUUUUUGGGGUUUUUGGGGAAAGUAUUAUGUUACGCCGUUCGGAUCUG | 0.79 |
| UGGGAGGUGGAUUUUGUUUAUUUUUUUAGCUCAUUUCCAGGGGUGGGAAUUUUUUUUUAUUAUGUGUCAUGAAUAAAGUUGUUUUUGAAA | 1.77 |
| UGGCCCUGGUGGCAUGCGGGGAGGAAGAGGUGGCCUGAUGGAUCGUGGUGGUCCCGGUGGAAUGUUCAGAGGUGGCCGUGGUGGAGACAG | 1.06 |
| GUCCUGUGCUACACAUCGUAUGUACCGAAUCGGGGAAAAAAAGGGGAAAGGGGUGGGGAAAGUAUUAUGUUACGCCGUUCGGAUCUGCAC | 0.991 |
| GCAGGAAGUAAAAACAAAUGGAAAUGGUUCGGAUAGUGGCAGGGGUGGGGGUUGCUAAGGAAAGGGUGGGAUGGGAGUGGGUAAAGAGUU | 1.22 |
| CACAGACAACACGCACCCACACAGACACAGAGGGAAGGGGUUGGGAUGGGGACAGGGUGCACAGCAGGUCGGGGUAGGACCCCAGCCCCU | -0.346 |
| AGUCCUGUGCUACACAUCGUAUGUACCGAAUCGGGCCCCGGGGCCCCGGGGCCCCGGGAAAGUAUUAUGUUACGCCGUUCGGAUCUGCAC | 0.48 |
| CCUCAAGUCCUGUGCUACACAUCGUAUGUACCGAAUCGGGGUGGGUGGGUGGGAAAGUAUUAUGUUACGCCGUUCGGAUCUGCACUUCCA | 0.802 |
| AGUCCUGUGCUACACAUCGUAUGUACCGAAUCGGCCCCCGGCCCCCGGGGCCCCCGGAAAGUAUUAUGUUACGCCGUUCGGAUCUGCACU | -0.426 |

Study 2
Target: Interferon regulatory factor 3, full length, phosphomimetic (IRF3, Homo sapiens, UniProt Q14653, residues 1-427, S386D/S396D/S398D/S402D/T404D/S405D)
UniProt Q14653, sequence (whole entry, unmodified, looked up): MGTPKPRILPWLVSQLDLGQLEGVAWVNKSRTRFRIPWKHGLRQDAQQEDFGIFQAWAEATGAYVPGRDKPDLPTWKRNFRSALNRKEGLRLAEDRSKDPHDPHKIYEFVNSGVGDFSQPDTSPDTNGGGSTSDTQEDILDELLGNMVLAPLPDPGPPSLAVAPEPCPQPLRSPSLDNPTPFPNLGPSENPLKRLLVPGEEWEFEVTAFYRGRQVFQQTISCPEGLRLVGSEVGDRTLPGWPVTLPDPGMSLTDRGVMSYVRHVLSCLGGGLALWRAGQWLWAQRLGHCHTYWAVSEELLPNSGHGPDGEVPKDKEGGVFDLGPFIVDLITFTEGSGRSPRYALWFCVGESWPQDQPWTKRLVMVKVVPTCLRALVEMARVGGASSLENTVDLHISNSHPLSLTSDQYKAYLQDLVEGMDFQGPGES
Method: protein-binding microarray
Form: double-stranded DNA, one strand shown
Matrix: in vitro
Concentration: 2540 nM top
Setting: 60-bp whole probe
With: salmon DNA 0.4 mg/ml
Relative to: random background probes
Reading: higher = stronger binding
All sequences stand within: GCCTAGCAC … GTCTTGATTCGCTTGACGCTGCTG
| Strand | fitted relative affinity [z-score] |
| --- | --- |
| GTGAATATATGTATATATGTGTGCTAG | -0.0273 |
| TTAGATATCGAGTATCGATTAGTGCTA | 0.217 |
| TTAGGTATCGGGTATCGGTCAGTGCTA | 1.42 |
| GACGGTTTCCGGTATCGGGACGTGCTA | 4.08 |
| TGACAGAGTGAGGTTTGGGCGTGCTAG | -1.19 |
| CAGAATCTCTCATGTTACATTGTGCTA | 0.22 |
| GACGGACTGGGTCTCGGGGCGTGCTAG | -0.899 |
| GACGATTTCATACTGGAGACGTGCTAG | 1.56 |
| GACGGTATCCTTATCCTGAAGTGCTAG | 4.95 |
| TTAGCTCTCCTACTGCTTTAGTGCTAG | 0.28 |
| TCACTTCTGGATCTCAGACTGTGCTAG | 1.5 |
| GACGATTTCCGTTCCGAGACGTGCTAG | 4.53 |
| GACGGTTTCGGTCGCGGGACGTGCTAG | 4.83 |
| GACGGTCTCGGCCTGGGGACGTGCTAG | -0.348 |
| TTAGGTATCGGTATCGGCTAGTGCTAG | 4.17 |
| GACGGTTTCCTTCTCCTCACGTGCTAG | 9.21 |
| GGGGGAAATGGGAAACCCGGGGTGCTA | 0.7 |
| GACGGACTGCACTATCGGGACGTGCTA | -0.221 |
| TTAGATGTCGGGTATCGATTAGTGCTA | 0.228 |
| TTAGCTATCCTTTTCCTTTAGTGCTAG | 5.23 |
| TTAGGTTTCGGAATCGGTTAGTGCTAG | 7.84 |
| TTAGGTATCGGGTATCGGTTCGTGCTA | 2.68 |
| GACGCTTTCCTTTTCCTGACGTGCTAG | 7.98 |
| TCATCTTTACTTCACTCACTGTGCTAG | 1.12 |
| TTAGGTTTCGGTTTCGTTTAGTGCTAG | 11.9 |

Study 3
Target: Sal-like protein 4, full length isoform B (SALL4, Homo sapiens, UniProt Q9UJQ4-2, residues 1-616)
Method: universal PBM
Form: double-stranded DNA, one strand shown
Matrix: in vitro
Concentration: not given
Setting: 8-mer, flanks averaged, mean of replicates
Reading: higher = stronger binding
| Strand | E-score |
| --- | --- |
| GAAGCCAC | -0.0741 |
| GACAAGGC | -0.159 |
| CACGGCTC | -0.267 |
| AAGCATTC | 0.125 |
| AGTACACC | 0.0214 |
| TGCTTACA | 0.129 |
| TGATGCCA | 0.0279 |
| ACCCCCAC | -0.199 |
| GCAGAATA | 0.163 |
| CTTGAGAC | -0.145 |
| AGTACTCA | 0.138 |
| GTCCCGAA | -0.19 |
| AGGGTAAC | -0.0261 |
| GAGTAACA | 0.0846 |
| ACCATCCC | -0.0631 |
| GGCTACTA | 0.102 |
| CTCGAAAC | -5e-05 |

Study 4
Target: RNA binding protein fox-1 homolog 2, RRM domain, GST-SBP tag (RBFOX2, Homo sapiens, UniProt O43251-10, residues 100-194)
Method: RNA Bind-n-Seq
Form: RNA
Matrix: in vitro
Concentration: 365 nM
Setting: natural RNA segment, single round, ends assumed
Relative to: no-protein control
Reading: higher = stronger binding
All sequences stand within: GGGAGUUCUACAGUCCGACGAUC … UGGAAUUCUCGGGUGCCAA
Target sequence (chain): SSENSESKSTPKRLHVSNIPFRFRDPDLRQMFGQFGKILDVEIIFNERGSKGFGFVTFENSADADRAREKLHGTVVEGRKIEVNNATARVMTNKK
| Strand | RBNS enrichment (R) |
| --- | --- |
| UCCUUCAGUACACAUCCUAUGGCGUGACCCCUCCCAGCCUCAGCCAUUCAGGGAACCGGCAGCGCCCACCUAGCGGAGCCGGCUUGGCCCCUCCUGAAAGGAUGGAAGGA | 0.602 |
| GAUUCAGGGACAAGUUGAAAGGCACUGAAACUGUGUUGAAGCCAGAUGAGUAAUUAUAAGUAACUGUAAUCGGUAGGGAGACAUGUUUUAACCUGGAUAUGUUAGAAAAG | 0.352 |
| UAGAUAGAUGCCAAGCUUCUUAUGUUCUGGGGGUAGUAUGCAUCAUUAUUGGGUCUCUGCCUUAAAACACAUCAAAAUUCAUUUUAGACAAAAAAACUUCUGCUUUGUCU | 0.477 |
| AACUCCAGCUCACACAUCUACCCAAGAUGCUUGGGGUUCUCUUUUUUCAUCUGAUUAUGUUAGGCCCUAGCUCUAGGUCAGCCCUGCUGGGCCCUUGAGAGGGGCUCUGU | 0.441 |
| UAAUGUAGGAAUACAAAUGGUAAAUUAGCAGCACAUAUAAUUUUUUUUAAAUUUAUGAUCCAUUUUGUAUGGUCUCAAGUUGGAUGACCUCAUUACUAAUAUUUGUUGUA | 0.859 |
| GGGAGCCUCUAAAAAAAUUUUUCACUGGGGGCCACGUGGGUCAUUAGAAGCCAGAGCUCUCCUCCAGGCUCCUUCCCAGUGCCUAGAGGUGCUAUAGGAAACAUAGAUCC | 0.317 |
| CAAGCAAAGGUCAUCACAGUGACCCAACCCAGACACUUCCCCAGCAGCCUCCCCAUACUCUGCUCCUGAUGUGGCAACCCUUGUCGGCUCCUGCCUUUGCCCCCCACUUU | 0.356 |
| CUCAUUCUUCUGUUUCCAUACCAAAGGCCAGGAGUGCUUCACUGUGCUGGAGCCAUGGUGUCCUUUGGAGGGACAACGGUGCACGCGGCAUGUAUCCUGGCUGAAGCGCU | 3.03 |
| GUCUUCACUAGACCCCAGCCCCCUCUACCCUUCUUACCACCUCCCUAUAGCCUCAGCUUCAGAAGCCAGUAGCCUCCAGCCACAGAGUAUCGUGUUGUGGGCUGUUUGAG | 0.338 |
| CUUCUAUCAAAUACCUUAUUUUACCUUACAGAUAUUUGUUGCACAGGCAGAUACUGCUGUAUUUAGACAUUUCUAUUUCAGUUCAUUAAAAACUGCAAAACCAAUCUGUA | 0.382 |
| AAAUAAAUUUCAUUUAUGAUUUUCUCAUCAACAUUUUCUUUGCUCUGUUUGUAGCUGAAUGUUACAUUUUUUUAAAAAUCUCUGUUCAAGCCAGAAGAGUUGAUUAUGAG | 0.368 |
| GUGUAUCUGUACUCUCUGCAGAUGGUCCAAAAUUGUAAUGGAGUCUGUAUUAGAAGAAAAUAAGGGUAAAAUCAGGCUGAACUGCAUGUAUAUGGCUCCACUGUGGCUUG | 13.5 |

Study 5
Target: Histone acetyltransferase KAT6A, winged helix 2, GST fusion (KAT6A, Homo sapiens, UniProt Q92794, residues 85-181)
Method: protein binding microarray
Form: double-stranded DNA, one strand shown
Matrix: in vitro
Concentration: not given
Setting: 8-mer, flanks averaged, mean of 2 arrays, mostly near background
Relative to: not given
Reading: higher = stronger binding
Construct (chain): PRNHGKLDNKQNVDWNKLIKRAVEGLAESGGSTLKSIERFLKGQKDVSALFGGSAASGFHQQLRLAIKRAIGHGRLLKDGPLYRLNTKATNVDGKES
| Strand | E-score |
| --- | --- |
| GGTTATCA | -0.0426 |
| GCCCTCGA | 0.0806 |
| CGCAACCC | 0.111 |
| AATACACC | -0.108 |
| ATATTACA | 0.0204 |
| TATCGCCA | 0.0448 |
| ATGAAACC | 0.101 |
| AAAACCCG | -0.0278 |
| ACGGGAAT | -0.0533 |
| AACGTATT | -0.0693 |
| AGCGGAAT | 0.0329 |
| AGCTCTGA | -0.0754 |
| CAGAAGTA | 0.00059 |
| GTCGGCTA | 0.105 |
| AGATGGAC | -0.0307 |
| AAATACAA | 0.0192 |
| GAATTTGA | 0.00455 |
| AGATCACA | -0.13 |
| GGGCCCAC | 0.16 |
